Experimental data pooled from the literature.
Protocols differ between the studies behind these lines.

C[C@H]1CNCCCN1S(=O)(=O)c1cccc2cncc(F)c12
subjects with any adverse event (healthy adult men; ocular, 1 drop per eye twice daily, 8 days, adverse event): 100%

O=C(Nc1cnccc1Cl)N1CCN(Cc2ccc3c(c2)OC(F)(F)O3)CC1
subjects with adverse events (multiple ascending dose; elderly men and women; 100 mg, at least 1 treatment-emergent event): 100%

C=CC(=O)NC1CCN(c2ncc3ncnc(Nc4ccc(Oc5ccc6c(c5)ncn6C)c(C)c4)c3n2)CC1
subjects with adverse events (healthy male volunteers; oral, 60 mg, at least 1 treatment-emergent event): 88%

O=C(O)CCC(=O)O.[2H]C([2H])([2H])Oc1cc(C)c2[nH]ccc2c1CN1CC[C@@H](C2CC2)C[C@H]1c1ccc(C(=O)O)cc1
subjects with reduced potassium TEAE (multiple ascending dose; healthy Chinese subjects; 100 mg twice daily): 0%

Cc1nc2ccc(F)cc2n1-c1nc(N)c(F)c(Nc2ccc(C(F)(F)F)cc2)n1
subjects with thrombocytopenia (leiomyosarcoma patients; 300 mg, added: dacarbazine 1000 mg/m2): 52.4%

CC(C)c1nc(N(C)S(C)(=O)=O)nc(-c2ccc(F)cc2)c1/C=C/[C@@H](O)C[C@@H](O)CC(=O)O
subjects with adverse event (refers to: oral herpes; healthy men; dose not given, 8 days, treatment-emergent, crossover trial): 4.5%

Cn1cc(Nc2nc(N)nc(-c3cccc(-n4ccc5cc(C6CC6)cc(F)c5c4=O)c3CO)n2)cn1
subjects with nausea (healthy subjects; oral, 300 mg tablet, fasted): 0%

CC[C@H](C)[C@H](NC(=O)[C@H](Cc1ccccc1)NC(=O)[C@H](CCC(=O)O)NC(=O)[C@H](CCCCNC(=O)COCCOCCNC(=O)COCCOCCNC(=O)CC[C@H](NC(=O)CCCCCCCCCCCCCCCCC(=O)O)C(=O)O)NC(=O)[C@H](C)NC(=O)[C@H](C)NC(=O)[C@H](CCC(N)=O)NC(=O)CNC(=O)[C@H](CCC(=O)O)NC(=O)[C@H](CC(C)C)NC(=O)[C@H](Cc1ccc(O)cc1)NC(=O)[C@H](CO)NC(=O)[C@H](CO)NC(=O)[C@@H](NC(=O)[C@H](CC(=O)O)NC(=O)[C@H](CO)NC(=O)[C@@H](NC(=O)[C@H](Cc1ccccc1)NC(=O)[C@@H](NC(=O)CNC(=O)[C@H](CCC(=O)O)NC(=O)C(C)(C)NC(=O)[C@@H](N)Cc1cnc[nH]1)[C@@H](C)O)[C@@H](C)O)C(C)C)C(=O)N[C@@H](C)C(=O)N[C@@H](Cc1c[nH]c2ccccc12)C(=O)N[C@@H](CC(C)C)C(=O)N[C@H](C(=O)N[C@@H](CCCNC(=N)N)C(=O)NCC(=O)N[C@@H](CCCNC(=N)N)C(=O)NCC(=O)O)C(C)C
subjects with discontinuation AEs (type 2 diabetes patients; dose not given): 6.7%

CC[C@H](C)[C@H](NC(=O)[C@H](Cc1ccccc1)NC(=O)[C@H](CCC(=O)O)NC(=O)[C@H](CCCCNC(=O)COCCOCCNC(=O)COCCOCCNC(=O)CC[C@H](NC(=O)CCCCCCCCCCCCCCCCC(=O)O)C(=O)O)NC(=O)[C@H](C)NC(=O)[C@H](C)NC(=O)[C@H](CCC(N)=O)NC(=O)CNC(=O)[C@H](CCC(=O)O)NC(=O)[C@H](CC(C)C)NC(=O)[C@H](Cc1ccc(O)cc1)NC(=O)[C@H](CO)NC(=O)[C@H](CO)NC(=O)[C@@H](NC(=O)[C@H](CC(=O)O)NC(=O)[C@H](CO)NC(=O)[C@@H](NC(=O)[C@H](Cc1ccccc1)NC(=O)[C@@H](NC(=O)CNC(=O)[C@H](CCC(=O)O)NC(=O)C(C)(C)NC(=O)[C@@H](N)Cc1cnc[nH]1)[C@@H](C)O)[C@@H](C)O)C(C)C)C(=O)N[C@@H](C)C(=O)N[C@@H](Cc1c[nH]c2ccccc12)C(=O)N[C@@H](CC(C)C)C(=O)N[C@H](C(=O)N[C@@H](CCCNC(=N)N)C(=O)NCC(=O)N[C@@H](CCCNC(=N)N)C(=O)NCC(=O)O)C(C)C
subjects with mild AEs (Caucasian subjects; 0.5 mg): 37.5%

COc1c(N2C[C@@H]3CCCN[C@@H]3C2)c(F)cc2c(=O)c(C(=O)O)cn(C3CC3)c12
subjects feeling hot (healthy volunteers; 400 mg): 1%

Cc1c(Cl)c(C)[n+]([O-])c(Cl)c1-c1noc(-c2cc(O)c(O)c([N+](=O)[O-])c2)n1
subjects with any serious TEAE (healthy subjects; oral, dose not given, all subjects): 0%

NCCONC(=O)[C@@H]1CC[C@@H]2CN1C(=O)N2OS(=O)(=O)O
subjects with serious adverse events (healthy Chinese male subjects; intravenous, 2 g): 0%

CC(C)n1c(Nc2cccnc2)nc2cnc(Nc3ccc(N4CCN(C)CC4)cc3)nc21
subjects with adverse event (refers to: aspartate aminotransferase increased; healthy male subjects; oral, 100 mg, study, added: itraconazole): 7.1%

CC#CC(=O)N[C@H]1CCCN(c2c(F)cc(C(N)=O)c3[nH]c(C)c(C)c23)C1
subjects with adverse events (healthy volunteers; oral, 10 mg once daily, 14 days): 33.3%

For quick reference, copied from above:
CC[C@H](C)[C@H](NC(=O)[C@H](Cc1ccccc1)NC(=O)[C@H](CCC(=O)O)NC(=O)[C@H](CCCCNC(=O)COCCOCCNC(=O)COCCOCCNC(=O)CC[C@H](NC(=O)CCCCCCCCCCCCCCCCC(=O)O)C(=O)O)NC(=O)[C@H](C)NC(=O)[C@H](C)NC(=O)[C@H](CCC(N)=O)NC(=O)CNC(=O)[C@H](CCC(=O)O)NC(=O)[C@H](CC(C)C)NC(=O)[C@H](Cc1ccc(O)cc1)NC(=O)[C@H](CO)NC(=O)[C@H](CO)NC(=O)[C@@H](NC(=O)[C@H](CC(=O)O)NC(=O)[C@H](CO)NC(=O)[C@@H](NC(=O)[C@H](Cc1ccccc1)NC(=O)[C@@H](NC(=O)CNC(=O)[C@H](CCC(=O)O)NC(=O)C(C)(C)NC(=O)[C@@H](N)Cc1cnc[nH]1)[C@@H](C)O)[C@@H](C)O)C(C)C)C(=O)N[C@@H](C)C(=O)N[C@@H](Cc1c[nH]c2ccccc12)C(=O)N[C@@H](CC(C)C)C(=O)N[C@H](C(=O)N[C@@H](CCCNC(=N)N)C(=O)NCC(=O)N[C@@H](CCCNC(=N)N)C(=O)NCC(=O)O)C(C)C
subjects with mild AEs (Caucasian subjects; 0.5 mg): 37.5%

COc1c(N2C[C@@H]3CCCN[C@@H]3C2)c(F)cc2c(=O)c(C(=O)O)cn(C3CC3)c12
subjects feeling hot (healthy volunteers; 400 mg): 1%
